Published values of several laboratories.
Every numbered part comes from another study and shows a few of its results, in no order.
Chain of UniProt Q6P3R8 (whole entry, looked up): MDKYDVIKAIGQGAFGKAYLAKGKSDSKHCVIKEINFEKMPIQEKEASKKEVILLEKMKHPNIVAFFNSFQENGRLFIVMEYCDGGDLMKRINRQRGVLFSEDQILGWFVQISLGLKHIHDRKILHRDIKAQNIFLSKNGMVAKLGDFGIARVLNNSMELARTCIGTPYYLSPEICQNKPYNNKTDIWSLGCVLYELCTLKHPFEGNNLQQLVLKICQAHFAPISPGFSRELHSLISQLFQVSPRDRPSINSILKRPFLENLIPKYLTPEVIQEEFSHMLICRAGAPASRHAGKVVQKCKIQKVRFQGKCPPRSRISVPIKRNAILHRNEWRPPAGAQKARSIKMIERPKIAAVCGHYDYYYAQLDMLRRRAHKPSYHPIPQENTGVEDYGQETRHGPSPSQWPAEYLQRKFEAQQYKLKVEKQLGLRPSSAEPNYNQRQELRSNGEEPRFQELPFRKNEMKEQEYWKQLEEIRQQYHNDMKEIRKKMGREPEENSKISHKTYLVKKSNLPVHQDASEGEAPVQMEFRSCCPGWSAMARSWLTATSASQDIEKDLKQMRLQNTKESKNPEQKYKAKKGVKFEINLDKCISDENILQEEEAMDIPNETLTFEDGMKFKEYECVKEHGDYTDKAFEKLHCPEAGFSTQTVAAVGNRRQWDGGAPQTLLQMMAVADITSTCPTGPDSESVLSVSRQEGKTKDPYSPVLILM
Chain of UniProt Q86UX6 (whole entry, looked up): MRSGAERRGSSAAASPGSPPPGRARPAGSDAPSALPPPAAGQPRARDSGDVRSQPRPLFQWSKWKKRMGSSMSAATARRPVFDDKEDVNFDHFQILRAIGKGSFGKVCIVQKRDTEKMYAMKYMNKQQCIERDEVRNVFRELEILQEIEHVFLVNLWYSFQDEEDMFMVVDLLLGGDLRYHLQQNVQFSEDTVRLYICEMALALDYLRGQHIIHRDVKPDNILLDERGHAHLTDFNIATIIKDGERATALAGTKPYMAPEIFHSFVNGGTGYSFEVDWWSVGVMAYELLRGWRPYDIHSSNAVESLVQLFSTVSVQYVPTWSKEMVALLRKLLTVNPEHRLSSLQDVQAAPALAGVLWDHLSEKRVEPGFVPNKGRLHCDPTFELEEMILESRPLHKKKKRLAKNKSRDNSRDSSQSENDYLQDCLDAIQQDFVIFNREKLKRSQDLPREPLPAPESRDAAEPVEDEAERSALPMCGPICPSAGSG
Chain of UniProt P11362 (whole entry, looked up): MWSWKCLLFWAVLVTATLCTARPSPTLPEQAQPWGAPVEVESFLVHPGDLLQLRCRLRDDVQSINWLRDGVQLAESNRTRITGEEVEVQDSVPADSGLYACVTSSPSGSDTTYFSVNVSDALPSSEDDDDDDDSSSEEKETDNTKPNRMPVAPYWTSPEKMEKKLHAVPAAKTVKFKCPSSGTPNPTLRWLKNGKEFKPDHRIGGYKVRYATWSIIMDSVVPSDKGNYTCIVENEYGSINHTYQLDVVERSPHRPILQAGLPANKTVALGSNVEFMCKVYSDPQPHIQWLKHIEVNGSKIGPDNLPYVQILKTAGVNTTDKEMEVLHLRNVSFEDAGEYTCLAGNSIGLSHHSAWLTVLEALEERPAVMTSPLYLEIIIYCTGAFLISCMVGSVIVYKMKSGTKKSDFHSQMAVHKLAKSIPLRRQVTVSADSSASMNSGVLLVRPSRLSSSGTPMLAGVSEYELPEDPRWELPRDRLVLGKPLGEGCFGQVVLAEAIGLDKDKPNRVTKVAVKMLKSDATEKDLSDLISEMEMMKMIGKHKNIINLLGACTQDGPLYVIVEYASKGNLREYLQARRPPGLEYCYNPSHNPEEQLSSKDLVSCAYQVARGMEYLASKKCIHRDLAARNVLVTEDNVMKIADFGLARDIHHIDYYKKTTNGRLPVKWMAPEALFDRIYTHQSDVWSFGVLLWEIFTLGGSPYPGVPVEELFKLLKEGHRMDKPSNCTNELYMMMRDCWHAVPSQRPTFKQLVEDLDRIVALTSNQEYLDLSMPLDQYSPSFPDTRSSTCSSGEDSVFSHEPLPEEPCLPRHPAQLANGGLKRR
Chain of UniProt Q2M2I8 (whole entry, looked up): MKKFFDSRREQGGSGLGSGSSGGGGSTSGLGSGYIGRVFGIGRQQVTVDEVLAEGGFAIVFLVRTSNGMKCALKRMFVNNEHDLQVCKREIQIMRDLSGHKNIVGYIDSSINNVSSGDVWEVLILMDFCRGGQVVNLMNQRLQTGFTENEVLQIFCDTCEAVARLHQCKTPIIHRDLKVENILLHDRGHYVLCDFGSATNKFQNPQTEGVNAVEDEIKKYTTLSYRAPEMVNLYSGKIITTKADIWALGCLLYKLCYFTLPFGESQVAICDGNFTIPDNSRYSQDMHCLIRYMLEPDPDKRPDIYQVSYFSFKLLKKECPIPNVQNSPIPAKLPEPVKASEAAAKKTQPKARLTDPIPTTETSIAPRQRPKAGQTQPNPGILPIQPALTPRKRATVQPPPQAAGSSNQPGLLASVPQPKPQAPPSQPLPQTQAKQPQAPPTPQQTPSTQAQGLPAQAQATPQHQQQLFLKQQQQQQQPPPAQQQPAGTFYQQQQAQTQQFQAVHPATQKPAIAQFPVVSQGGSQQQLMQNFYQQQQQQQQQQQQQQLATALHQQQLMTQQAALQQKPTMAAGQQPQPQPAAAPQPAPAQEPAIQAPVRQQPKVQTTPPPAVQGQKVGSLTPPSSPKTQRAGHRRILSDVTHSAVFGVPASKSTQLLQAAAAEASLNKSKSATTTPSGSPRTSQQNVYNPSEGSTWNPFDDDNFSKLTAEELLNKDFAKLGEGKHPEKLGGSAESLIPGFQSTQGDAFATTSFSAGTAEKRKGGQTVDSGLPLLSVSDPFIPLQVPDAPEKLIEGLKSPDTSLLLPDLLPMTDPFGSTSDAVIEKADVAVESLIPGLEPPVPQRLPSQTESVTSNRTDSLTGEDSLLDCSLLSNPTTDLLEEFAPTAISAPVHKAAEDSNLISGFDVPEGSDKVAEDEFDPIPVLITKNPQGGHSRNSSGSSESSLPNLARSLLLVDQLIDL
Chain of UniProt Q52WX2 (whole entry, looked up): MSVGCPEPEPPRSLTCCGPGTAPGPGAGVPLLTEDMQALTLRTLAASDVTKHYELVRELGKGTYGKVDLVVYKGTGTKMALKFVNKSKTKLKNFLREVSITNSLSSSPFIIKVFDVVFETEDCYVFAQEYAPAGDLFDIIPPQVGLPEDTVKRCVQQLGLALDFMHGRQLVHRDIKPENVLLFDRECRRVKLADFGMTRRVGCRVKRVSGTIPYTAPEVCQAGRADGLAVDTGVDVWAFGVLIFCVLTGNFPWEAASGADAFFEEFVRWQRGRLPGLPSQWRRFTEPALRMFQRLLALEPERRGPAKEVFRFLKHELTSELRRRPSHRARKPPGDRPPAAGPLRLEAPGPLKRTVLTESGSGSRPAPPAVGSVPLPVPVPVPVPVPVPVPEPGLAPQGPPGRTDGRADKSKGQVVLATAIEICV

Series 1
SMILES: CC(C)n1cnc(-c2ccc(F)cc2)c1-c1ncc(C(=O)Nc2ccc(N3CCN(C)CC3)cc2)[nH]1
Method: phase 2a trial
Host: idiopathic pulmonary fibrosis patients
assay | conditions | adverse event incidence [%]
measured: infection | dose not given, grade 2, all arms pooled | 0
measured: carotid intima-media thickening | 30 mg once daily, grade 3 | 0
measured: infection | dose not given, grade 4, all arms pooled | 0
measured: QRS axis abnormal | dose not given, grade 5, all arms pooled | 0
measured: ventricular extrasystoles | 30 mg once daily, grade 4 | 0
measured: hepatic enzyme abnormal | 60 mg once daily, grade 4 | 0
measured: ventricular extrasystoles | dose not given, grade 1, all arms pooled | 0
measured: general and administration site disorders | 60 mg once daily, grade 4 | 0

Series 2
Target: Receptor-interacting serine/threonine-protein kinase 2 (RIPK2, Homo sapiens, UniProt O43353)
Chain of UniProt O43353 (whole entry, looked up): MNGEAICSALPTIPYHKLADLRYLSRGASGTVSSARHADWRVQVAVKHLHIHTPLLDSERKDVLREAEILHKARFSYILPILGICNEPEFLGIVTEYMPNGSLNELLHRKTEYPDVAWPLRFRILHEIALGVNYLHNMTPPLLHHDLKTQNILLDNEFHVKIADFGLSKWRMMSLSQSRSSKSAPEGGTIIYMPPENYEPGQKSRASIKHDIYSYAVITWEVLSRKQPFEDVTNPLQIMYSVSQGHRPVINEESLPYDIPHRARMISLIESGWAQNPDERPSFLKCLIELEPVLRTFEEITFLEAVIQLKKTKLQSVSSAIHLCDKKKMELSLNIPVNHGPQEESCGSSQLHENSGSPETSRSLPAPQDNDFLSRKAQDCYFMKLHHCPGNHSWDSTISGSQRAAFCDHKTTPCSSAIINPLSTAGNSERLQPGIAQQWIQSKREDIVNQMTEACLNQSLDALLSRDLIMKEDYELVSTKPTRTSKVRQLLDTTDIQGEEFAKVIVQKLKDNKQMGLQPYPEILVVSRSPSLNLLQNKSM
Read-out: enzyme activity
Mode: inhibitor
Tested at: 0.5 µM
Baseline: control
SMILES | remaining activity [%]
CC(C)n1cnc2c(Nc3cccc(Cl)c3)nc(NCCO)nc21 | 84.3
FC(F)(F)c1ccc(/C=C/c2nc(COc3ccc(CCCCn4ccnn4)cc3)co2)cc1 | 109
NC(=O)c1ccc(-c2nc(-c3ccc4c(c3)OCCO4)c(-c3ccccn3)[nH]2)cc1 | 48.3
O=C(c1ccccc1)c1ccc(N2CCOCC2)cc1O | 95
Nc1nc(Nc2ccc(S(N)(=O)=O)cc2)nn1C(=S)Nc1c(F)cccc1F | 19.7
CC(C)N(CCC(=O)c1ccc2ccccc2c1)Cc1ccccc1 | 78.3
COc1cc2c(Nc3ccc(Br)cc3F)ncnc2cc1OCC1CCN(C)CC1 | 23.4
Clc1ccc(Nc2nnc(Cc3ccncc3)c3ccccc23)cc1 | 111

Series 3
Read-out: AlphaScreen signal
Method: AlphaScreen counter screen
Matrix: His6 peptide without bromodomain
Tested at: 50 µM
Notes: assay interference check
SMILES | inhibition
Nc1nccc(-c2c(-c3ccc(F)cc3)ncn2C2CCNCC2)n1 | 19.1%
NS(=O)(=O)c1ccc(NN=C2C(=O)Nc3ccc(Br)cc32)cc1 | 22.2%
NC(=O)Nc1cc(-c2cccc(F)c2)sc1C(=O)N[C@H]1CCCNC1 | 27.8%
Cc1ccc2c(c1)C(=NNC(=O)c1ccc(Cl)cc1)C(=O)N2 | 10.7%
COc1cc(C=C2SC(=O)NC2=O)c(Br)cc1O | -4.1%
CC(C)(C)n1nc(-c2cccc3ccccc23)c2c(N)ncnc21 | 12.3%
COc1nccc(-c2c(-c3ccc(F)cc3)ncn2C2CCC(O)CC2)n1 (stereo not shown) | 5.15%
Nc1nc(SCc2ccc(Cl)cc2Cl)c2nc[nH]c2n1 | 29%
O=c1ccc2ccc(O)c(O)c2o1 | 10.9%
Cc1ccc(NC2=CC(=O)c3sc(C)nc3C2=O)cc1 | 82.8%

Series 4
SMILES: CC(=O)Nc1c(C(C)=O)c(=O)n(C)c2nc(-c3ccc(Cl)cc3Cl)c(-c3ccc(Cl)cc3)cc12
Tested at: 1 µM
target | assay | remaining binding [%]
FGFR1 (Homo sapiens, UniProt P11362) | cell-free assay, competition with immobilised ligand | 100
EGFR (Homo sapiens, UniProt P00533, T790M) | cell-free assay, competition with immobilised ligand | 100
Receptor-type tyrosine-protein kinase FLT3, autoinhibited (FLT3, Homo sapiens, UniProt P36888) | cell-free assay, competition with immobilised ligand | 100
Tyrosine-protein kinase ABL1, non-phosphorylated (ABL1, Homo sapiens, UniProt P00519, F317L) | cell-free assay, competition with immobilised ligand | 100
CSNK1D (Homo sapiens, UniProt P48730) | cell-free assay, competition with immobilised ligand | 100
SRC (Homo sapiens, UniProt P12931) | cell-free assay, competition with immobilised ligand | 100
WEE1 (Homo sapiens, UniProt P30291) | cell-free assay, competition with immobilised ligand | 100
STK32C (Homo sapiens, UniProt Q86UX6) | cell-free assay, competition with immobilised ligand | 100
GSK3B (Homo sapiens, UniProt P49841) | cell-free assay, competition with immobilised ligand | 100
NEK5 (Homo sapiens, UniProt Q6P3R8) | cell-free assay, competition with immobilised ligand | 100
CDK19 (Homo sapiens, UniProt Q9BWU1) | competition binding | 100
Ribosomal protein S6 kinase alpha-2, N-terminal kinase domain (RPS6KA2, Homo sapiens, UniProt Q15349) | cell-free assay, competition with immobilised ligand | 100
EPHA8 (Homo sapiens, UniProt P29322) | cell-free assay, competition with immobilised ligand | 100
CSNK2A2 (Homo sapiens, UniProt P19784) | cell-free assay, competition with immobilised ligand | 100
STK10 (Homo sapiens, UniProt O94804) | cell-free assay, competition with immobilised ligand | 100
AAK1 (Homo sapiens, UniProt Q2M2I8) | binding | 100
SBK1 (Homo sapiens, UniProt Q52WX2) | cell-free assay, competition with immobilised ligand | 80

A few entries again (series 1):
assay | conditions | adverse event incidence [%]
measured: infection | dose not given, grade 4, all arms pooled | 0
measured: hepatic enzyme abnormal | 60 mg once daily, grade 4 | 0
measured: carotid intima-media thickening | 30 mg once daily, grade 3 | 0
measured: ventricular extrasystoles | 30 mg once daily, grade 4 | 0
measured: ventricular extrasystoles | dose not given, grade 1, all arms pooled | 0
